Results from different studies.
Numbered parts are unrelated; each lists some results of a single study. Positions count from the first letter of the parent shown.

Study 1 — method: aptamer microarray, sandwich; molecule type: DNA with 2'F-ANA; sample: in vitro; concentration: 200 nM; added: Cy3 exosite-II aptamer, 400 nM; direction: higher = stronger binding; strand: GGTTGGTGTGGTTGG
Target: Prothrombin, mature alpha-thrombin (F2, Homo sapiens, UniProt P00734)
Setting: whole 15-mer aptamer, many near background
For `2'F-ANA at 2 5 7 11 12 15`, “mean fluorescence intensity” read 125 a.u.
For `2'F-ANA at 2 6 8 14`, “mean fluorescence intensity” read 167 a.u.
`2'F-ANA at 2 3 5 6 7 8 11 13 14` — result for “mean fluorescence intensity”: 51.1 a.u.
`2'F-ANA at 2 3 4 8 11 12 13 14 15` — result for “mean fluorescence intensity”: 329 a.u.
For `2'F-ANA at 1 2 6 7 8 10 12 14`, “mean fluorescence intensity” read 47.4 a.u.
`2'F-ANA at 1 4 5 10 15` — result for “mean fluorescence intensity”: 45.4 a.u.
`2'F-ANA at 1 4 5 6 9 11 15`: “mean fluorescence intensity” 51.4 a.u.
Under “mean fluorescence intensity”, `2'F-ANA at 1 3 5 6 7 10 12 13 15` is recorded as 49.3 a.u.
Under “mean fluorescence intensity”, `2'F-ANA at 1 2 5 7 9 10` is recorded as 46.4 a.u.
`2'F-ANA at 5 6 10 11 13 15`: “mean fluorescence intensity” 46.4 a.u.
For `2'F-ANA at 2 3 4 6 7 8 10 11 14`, “mean fluorescence intensity” read 179 a.u.
`2'F-ANA at 1 3 4 5 6 8 9 10`: “mean fluorescence intensity” 66.8 a.u.
Under “mean fluorescence intensity”, `2'F-ANA at 1 2 9 10 11 12 15` is recorded as 71.2 a.u.
Under “mean fluorescence intensity”, `2'F-ANA at 1 2 3 5 7 10 11 14` is recorded as 55.5 a.u.
Under “mean fluorescence intensity”, `2'F-ANA at 2 3 4 5 7 8 9 10 12` is recorded as 63.2 a.u.
`2'F-ANA at 1 2 4 5 8 13 15` — result for “mean fluorescence intensity”: 57.3 a.u.
For `2'F-ANA at 8 9 11 12 13 14 15`, “mean fluorescence intensity” read 211 a.u.
`2'F-ANA at 5 6 7 9 11` — result for “mean fluorescence intensity”: 63.7 a.u.
`2'F-ANA at 1 3 4 5 8 10 13 14 15`: “mean fluorescence intensity” 55 a.u.
`2'F-ANA at 4 6 7 9 10 11 13`: “mean fluorescence intensity” 62.8 a.u.
`2'F-ANA at 2 3 4 8 10 13 15` — result for “mean fluorescence intensity”: 200 a.u.
`2'F-ANA at 1 4 5 6 7 8 11 13 14` — result for “mean fluorescence intensity”: 50.4 a.u.

Study 2 — target: CRIPT, C-terminal peptide; method: DHFR complementation, deep sequencing; sample: yeast; reference: wild type; direction: higher = weaker binding
Setting: single substitutions, model-inferred values
Parent: ERBIN, PDZ domain 1 (human); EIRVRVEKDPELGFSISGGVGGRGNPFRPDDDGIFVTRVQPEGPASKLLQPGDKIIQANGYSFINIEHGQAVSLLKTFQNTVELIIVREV; partner TKNYKQTSV
`Q40C` — result for “binding free energy change”: 0.266 kcal/mol.
`P41G` — result for “binding free energy change”: 0.33 kcal/mol.
`Y61T` — result for “binding free energy change”: 0.0714 kcal/mol.
`Q70Y`: “binding free energy change” 0.109 kcal/mol.
For `T81R`, “binding free energy change” read 0.0395 kcal/mol.
`N59I`: “binding free energy change” 0.892 kcal/mol.
Under “binding free energy change”, `L75D` is recorded as 1.18 kcal/mol.
`K47P` — result for “binding free energy change”: 0.208 kcal/mol.
For `L48D`, “binding free energy change” read 0.171 kcal/mol.
`E83F` — result for “binding free energy change”: 0.179 kcal/mol.
`Q50N` — result for “binding free energy change”: 0.0782 kcal/mol.
Under “binding free energy change”, `N25V` is recorded as 0.651 kcal/mol.
`S73G`: “binding free energy change” 0.0587 kcal/mol.
For `G24L`, “binding free energy change” read 1.46 kcal/mol.
For `R88K`, “binding free energy change” read 0.332 kcal/mol.
Under “binding free energy change”, `P41E` is recorded as 0.231 kcal/mol.
Under “binding free energy change”, `D53P` is recorded as 1.67 kcal/mol.
For `V87W`, “binding free energy change” read -0.0168 kcal/mol.
Under “binding free energy change”, `V87L` is recorded as 0.0485 kcal/mol.
`E89H`: “binding free energy change” 0.102 kcal/mol.
For `G43W`, “binding free energy change” read 1.17 kcal/mol.
`K54D`: “binding free energy change” 0.823 kcal/mol.
Under “binding free energy change”, `E42K` is recorded as 0.1 kcal/mol.
`G19D` — result for “binding free energy change”: 1.18 kcal/mol.
`P26R` — result for “binding free energy change”: 0.786 kcal/mol.

Study 3 — target: CCND3, cyclin fold, Cln2 fusion (human); method: yeast growth competition, sequencing; sample: yeast; setting: weak parent motif; reference: not given; direction: higher = stronger binding
Parent: ORC1 docking peptide (human); PRARKRLELGNLG; partner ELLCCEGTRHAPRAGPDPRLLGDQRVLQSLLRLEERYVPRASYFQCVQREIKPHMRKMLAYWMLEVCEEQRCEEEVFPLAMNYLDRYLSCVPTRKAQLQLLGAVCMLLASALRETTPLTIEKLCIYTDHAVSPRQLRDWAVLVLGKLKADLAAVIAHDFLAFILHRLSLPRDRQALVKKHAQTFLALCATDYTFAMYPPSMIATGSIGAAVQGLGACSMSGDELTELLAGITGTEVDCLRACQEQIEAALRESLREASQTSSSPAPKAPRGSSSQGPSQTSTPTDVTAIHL
`P1V`: “normalised enrichment score” 0.0447.
For `R4H`, “normalised enrichment score” read 0.183.
For `A3Y`, “normalised enrichment score” read 0.279.
Under “normalised enrichment score”, `R6H` is recorded as 0.115.
For `E8A`, “normalised enrichment score” read 0.12.
Under “normalised enrichment score”, `L9M` is recorded as 0.188.
`P1H`: “normalised enrichment score” 0.124.
For `L9Y`, “normalised enrichment score” read 0.141.
Under “normalised enrichment score”, `A3S` is recorded as 0.137.
`R6D` — result for “normalised enrichment score”: 0.16.
Under “normalised enrichment score”, `G10L` is recorded as 0.164.
`K5W` — result for “normalised enrichment score”: 0.106.
For `R6Q`, “normalised enrichment score” read 0.138.
For `G13P`, “normalised enrichment score” read 0.0867.
For `G10N`, “normalised enrichment score” read 0.107.
For `N11W`, “normalised enrichment score” read 0.163.
Under “normalised enrichment score”, `K5R L9F` is recorded as 0.236.
`R6T`: “normalised enrichment score” 0.0999.
`G13D` — result for “normalised enrichment score”: 0.0443.
`L12M` — result for “normalised enrichment score”: 0.16.
For `N11P`, “normalised enrichment score” read 0.154.
`P1K`: “normalised enrichment score” 0.122.
`A3V` — result for “normalised enrichment score”: 0.0545.
Under “normalised enrichment score”, `G13M` is recorded as 0.194.

Study 4 — method: protein binding microarray; molecule type: double-stranded DNA, one strand shown; sample: in vitro; concentration: not given; reference: not given; direction: higher = stronger binding
Target: Histone acetyltransferase KAT6A, winged helix 2, GST fusion (KAT6A, Homo sapiens, UniProt Q92794, residues 85-181)
Setting: 8-mer, flanks averaged, mean of 2 arrays, mostly near background
Target sequence (chain): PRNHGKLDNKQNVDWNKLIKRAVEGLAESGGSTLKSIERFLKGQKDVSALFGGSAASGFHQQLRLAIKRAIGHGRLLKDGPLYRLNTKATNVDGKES
`CCCCACCG` has an E-score of 0.0913.
For `CTGTCAGC`, the E-score was 0.0673.
The E-score of `AATGACGC` is reported as -0.115.
With `CACGAGGA` the E-score was -0.0249.
With `TGAGCCCA` the E-score was -0.0882.
`GAAATACC` gave an E-score of -0.0407.
`CCTTAATC` gave an E-score of 0.0287.
For `GCGGACAC`, the E-score was 0.202.
`ACATTGAT` gave an E-score of -0.101.
`CAGGTGCA` gave an E-score of -0.00419.
`AACTGTAC` has an E-score of -0.2.
`GCATGTCA` has an E-score of -0.0793.
`CGTCAAAC` has an E-score of -0.0219.
For `CGGAGCCA`, the E-score was 0.0208.
`CTGTACAC` gave an E-score of -0.0834.
`AACCCCCG` has an E-score of -0.183.
`CACAGCTG` gave an E-score of -0.141.

Study 5 — method: DHFR PCA, deep sequencing; sample: yeast; added: (+)-ABA 0 µM; reference: wild-type fitted maximum; direction: higher = stronger binding
Target: ABI1, truncated, D143A, DHFR fusion (Arabidopsis thaliana)
Setting: methotrexate growth selection, single substitutions
Parent: PYL1, truncated, DHFR fusion (Arabidopsis thaliana); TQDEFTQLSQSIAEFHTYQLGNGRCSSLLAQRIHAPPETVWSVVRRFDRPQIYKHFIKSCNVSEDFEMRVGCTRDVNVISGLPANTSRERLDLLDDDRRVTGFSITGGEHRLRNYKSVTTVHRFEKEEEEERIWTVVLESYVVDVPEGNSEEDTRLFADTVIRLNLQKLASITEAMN
`S117K`: “relative binding score” -11.4%.
Under “relative binding score”, `E174R` is recorded as -2.94%.
For `R99Q`, “relative binding score” read 16.5%.
For `F47Y`, “relative binding score” read -2.87%.
`L94F`: “relative binding score” 30.6%.
`K58N`: “relative binding score” 0.953%.
Under “relative binding score”, `Q7N` is recorded as 15.5%.
`R163P` — result for “relative binding score”: 6.77%.
`R90V` — result for “relative binding score”: 10.5%.
For `L156T`, “relative binding score” read 13.8%.
`L94P`: “relative binding score” -5.31%.
`H55Q`: “relative binding score” 22.9%.
Under “relative binding score”, `F56Y` is recorded as -2.1%.
For `A35W`, “relative binding score” read -0.217%.
For `V142T`, “relative binding score” read -1.25%.
`E130V`: “relative binding score” 20.7%.
For `E147V`, “relative binding score” read 9.63%.

Repeated from above (study 2):
`S73G`: “binding free energy change” 0.0587 kcal/mol.
For `G24L`, “binding free energy change” read 1.46 kcal/mol.
For `R88K`, “binding free energy change” read 0.332 kcal/mol.
Under “binding free energy change”, `P41E` is recorded as 0.231 kcal/mol.
Under “binding free energy change”, `D53P` is recorded as 1.67 kcal/mol.
For `V87W`, “binding free energy change” read -0.0168 kcal/mol.
Under “binding free energy change”, `V87L` is recorded as 0.0485 kcal/mol.
`E89H`: “binding free energy change” 0.102 kcal/mol.
